Published values gathered from unrelated publications.
Compare with care: the assays were run in different laboratories. “And” joins repeats or separate records; there may be more than shown. ± marks the error that the study gave.

Compound | target or system | test | system | setting | scale | measurement | value
CCCCCCCCC(=O)c1cc(O)c(O)c(O)c1 | COS-7 |  |  | 30 µM, 24 h, 0.1% DMSO, unit not given | reference: vehicle control | necrotic cells | 0.54 ± 0.3
Cc1cccc(-c2[nH]c(CNc3ccccc3F)nc2-c2ccc3ncnn3c2)n1 | pomalidomide-resistant MM1.S cells | XTT |  | 0.25 µM | higher = more viable cells | XTT absorbance | 4.4 E-1 and 6.3 E-1 and 4.2 E-1
COc1c(O)c(C)cc2c1C(=O)c1c(ccc(O)c1O)C2=O | HepaRG co-cultured with HK-2 | MTT |  | 16.67 µM, 48 h | reference: untreated control | cell viability | 71.2 ± 13.1%
CC(=O)c1nn(-c2ccc(Cl)cc2)/c(=N/N=C(\C)c2ccc(NC(=O)c3ccc(C)cc3)cc2)s1 | HepG2 |  |  | 0.156 µM |  | toxicity | 54.8%
COCCOCc1ccc(-c2cc3onc(-c4ccccc4)c3c(=O)n2C)cc1 | COS-7 | WST-8 |  | 10 µM, 24 h, 0.1% DMSO, unit not given | reference: vehicle control | metabolic activity | 0.98 ± 0.04
Oc1ccccc1-c1n[nH]cc1-c1ccnc2ccccc12 | YPK1 (Candida albicans) | kinase binding, MIB/MS competition | Candida albicans lysate | 10 µM | reference: DMSO | log2 fold change | 0.26
O=C(COc1cccc2c1C(=O)N(C1CCC(=O)NC1=O)C2=O)NCCOCCOCCNS(=O)(=O)Nc1cccc(-c2cn3cc(C(=O)NC4CCC4)ccc3n2)c1 (stereo not drawn) | MV4-11 | TMT proteomics, measured: NAA38 protein |  | 10 µM, 16 h | reference: DMSO | log2 fold change | 0.014
CC(=O)c1c(C)cc2cc(O)cc(O[C@@H]3O[C@H](CO)[C@@H](O)[C@H](O)[C@H]3O)c2c1O | HepaRG co-cultured with HK-2 | MTT |  | 266.67 µM, 24 h | reference: untreated control | cell viability | 88.3 ± 15.3%
CCc1cc(C(=O)NC)c2nccc(N3CCc4c(cc(Cn5ccnc5)cc4-c4cn(C)nc4C(F)(F)F)C3=O)c2c1 |  |  | Sprague Dawley rats | oral, 50 mg/kg once daily, 7 days | reference: vehicle | serum GGT change | -50%
Cn1cc(-c2ccc(-c3cncc(Cl)c3N3CCC4(CCNC4=O)CC3)cc2)cn1 | COLO 205 | gene expression, microarray, measured: FGFR3 mRNA |  | concentration not given, 6 h | reference: untreated cells | log2 fold change | 1.98
O=C(/C=C/C=C/C=C/C1CCCCC1)NC1=C[C@@](O)(/C=C/C=C/C=C/C(=O)NC2=C(O)CCC2=O)[C@@H]2O[C@@H]2C1=O | SK-MEL-30 | cell growth, CellTiter-Glo |  | 78 h |  | GI50 | 14.3 µM
Cc1ncsc1-c1ccc([C@H](C)NC(=O)[C@H]2C[C@H](O)CN2C(=O)[C@@H](NC(=O)CCCCCCCCCNC(=O)c2ccc3c(c2)[C@H](NC(=O)c2cc(-c4ccc(C(=O)N(C)C)c(O)c4)on2)CC3)C(C)(C)C)cc1 | MV4-11 | TMT proteomics, measured: RNASE3 protein |  | concentration not given, 2 h | reference: DMSO | log2 fold change | -2.36
COc1cc(OC)c2c(=O)[nH]c(-c3cc(C)c(OCCO)c(C)c3)nc2c1 | OCI-Ly1 |  |  | 1 µM, 120 h |  | viability | 119%
Cc1nc2ccc(NC(=O)Cc3ccc(OC(F)(F)F)cc3)cc2[nH]1 | sample A patient iPSC-derived NPCs | cell viability protection, MTS |  | 10 µM, 24 h |  | activity class | inactive
CC[C@@H]1/C=C/C=C/C[C@H](C)[C@@H](O)[C@](C)(O)C(=O)[C@@H](C)[C@H](O)[C@@H](C)C(=O)[C@H](C)[C@@H](O)[C@H](C)/C=C/C(=O)O[C@H]2[C@@H](C)[C@@H](CC1)O[C@@]1(CC[C@@H](C)[C@@H](C[C@H](C)O)O1)[C@@H]2C | NCI-H292 | Seahorse XF24 |  | 1 µM | reference: control | oxygen consumption rate | 25 to 30%
Cc1nn(-c2nc3c(F)cc(F)cc3s2)c(O)c1C(c1ccc(C(F)(F)F)cc1)c1c(C)nn(-c2nc3c(F)cc(F)cc3s2)c1O | RAW-ISG | IFN luciferase reporter |  | 10 µM, added: HT-DNA |  | inhibition | 92.6% and 92.2% and 92.4% and 92.1% and 91.8%
CC(C)N(CCCNC(=O)Nc1ccc(C(C)(C)C)cc1)C[C@H]1O[C@@H](n2cc(Br)c3c(N)ncnc32)[C@H](O)[C@@H]1O | OCI-Ly1 |  |  | 1 µM, 120 h |  | viability | 95.4%
CCn1c(=O)/c(=C2\Sc3cc(Cl)ccc3N2C)s/c1=C\c1scc[n+]1Cc1ccccc1 | iPSC-derived cardiomyocytes | concentration-response curve, measured: MyBP-C/MYH ratio |  | 24 h |  | EC50 | 25.5 µM
Clc1ccc(-c2csc(NN=C3CCCC3)n2)cc1 | OCI-Ly1 |  |  | 1 µM, 120 h |  | viability | 88%
Cn1cc(Nc2nccc(-c3ccc4c(c3)CN(C3COC3)CC[C@H]4NC(=O)c3cn(C(C)(C)C)nn3)n2)cn1 | mouse splenic B cells | measured: Telomerase signalling |  | 30 mg/kg, IgD-activated in vivo | reference: vehicle, direction not given | pathway activation z-score | 0.258
Clc1ccc(C2(c3ccc(-c4cn[nH]c4)cc3)CCNCC2)cc1 | CLL cells, patient | flow cytometry, MFI | human | 0.01 µM, 24 h |  | pERK level | 457
O=C(O)CCNc1cc(N2CCc3ccccc3CC2)nc(-c2cccnc2)n1 | OCI-Ly1 |  |  | 0.1 µM, 120 h |  | viability | 125%
Cn1c(Nc2nc3ccc(C(F)(F)F)cc3s2)nc2cc(C(=O)NCCOCCO)ccc21 | SH-SY5Y | RNA-seq, measured: FAM83G mRNA |  | 5 µM, 5 h | reference: untreated cells | fold change | 2.81
C=C1C(=O)O[C@@H](CCC)[C@@H]1C(=O)O (racemic) | OCI-Ly1 |  |  | 1 µM, 120 h |  | viability | 151%
CCn1cc(-c2cc(Cn3ccnc3)cc3c2CCN([C@H](c2cc(OC)ccn2)C2CC2)C3=O)c(C(F)(F)F)n1 | HSC-4 | cell growth, inhibitor |  | 120 h |  | EC50 | > 30 µM
Nc1nccc2c1ncn2[C@@H]1C=C(CO)[C@@H](O)[C@H]1O | OCI-Ly1 |  |  | 1 µM, 120 h |  | viability | 3.89%
C=C1C(=O)O[C@H]2[C@H]1CCC(C)=C1CC[C@@](C)(O)[C@@H]12 | iPSC-derived cardiomyocytes | concentration-response fit |  | concentration not given | reference: vehicle | fitted top MyBP-C level | 91%

For quick reference, copied from above:
Compound | target or system | test | system | setting | scale | measurement | value
COc1cc(OC)c2c(=O)[nH]c(-c3cc(C)c(OCCO)c(C)c3)nc2c1 | OCI-Ly1 |  |  | 1 µM, 120 h |  | viability | 119%
Cc1nc2ccc(NC(=O)Cc3ccc(OC(F)(F)F)cc3)cc2[nH]1 | sample A patient iPSC-derived NPCs | cell viability protection, MTS |  | 10 µM, 24 h |  | activity class | inactive
CC[C@@H]1/C=C/C=C/C[C@H](C)[C@@H](O)[C@](C)(O)C(=O)[C@@H](C)[C@H](O)[C@@H](C)C(=O)[C@H](C)[C@@H](O)[C@H](C)/C=C/C(=O)O[C@H]2[C@@H](C)[C@@H](CC1)O[C@@]1(CC[C@@H](C)[C@@H](C[C@H](C)O)O1)[C@@H]2C | NCI-H292 | Seahorse XF24 |  | 1 µM | reference: control | oxygen consumption rate | 25 to 30%
